Published values of several laboratories.
UniProt Q8IW41, sequence (whole entry, looked up): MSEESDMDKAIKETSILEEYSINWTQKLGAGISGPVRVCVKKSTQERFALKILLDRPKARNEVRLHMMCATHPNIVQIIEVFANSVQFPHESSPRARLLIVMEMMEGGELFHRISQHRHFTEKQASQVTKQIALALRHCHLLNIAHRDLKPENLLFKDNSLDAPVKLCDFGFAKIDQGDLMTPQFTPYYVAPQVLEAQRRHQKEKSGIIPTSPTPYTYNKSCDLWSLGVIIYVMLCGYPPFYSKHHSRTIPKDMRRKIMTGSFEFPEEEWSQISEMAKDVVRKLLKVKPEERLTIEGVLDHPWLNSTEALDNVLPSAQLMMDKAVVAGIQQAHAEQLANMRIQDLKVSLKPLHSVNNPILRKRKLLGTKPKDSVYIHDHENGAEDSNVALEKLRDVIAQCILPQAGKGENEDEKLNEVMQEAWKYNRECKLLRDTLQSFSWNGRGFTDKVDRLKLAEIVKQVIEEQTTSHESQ
UniProt P49761, sequence (whole entry, looked up): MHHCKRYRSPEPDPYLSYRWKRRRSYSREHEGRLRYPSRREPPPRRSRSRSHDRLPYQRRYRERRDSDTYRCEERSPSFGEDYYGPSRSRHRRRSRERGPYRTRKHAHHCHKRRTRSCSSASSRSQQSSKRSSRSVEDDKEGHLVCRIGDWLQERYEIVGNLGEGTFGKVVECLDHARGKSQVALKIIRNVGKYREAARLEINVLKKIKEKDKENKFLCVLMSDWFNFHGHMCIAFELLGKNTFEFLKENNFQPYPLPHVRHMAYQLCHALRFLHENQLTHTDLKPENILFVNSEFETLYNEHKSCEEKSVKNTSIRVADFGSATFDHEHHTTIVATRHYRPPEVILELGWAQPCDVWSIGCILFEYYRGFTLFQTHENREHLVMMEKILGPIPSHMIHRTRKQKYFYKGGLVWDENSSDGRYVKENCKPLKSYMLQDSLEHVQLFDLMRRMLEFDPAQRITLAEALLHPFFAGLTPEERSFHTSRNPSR
UniProt P49935, sequence (whole entry, looked up): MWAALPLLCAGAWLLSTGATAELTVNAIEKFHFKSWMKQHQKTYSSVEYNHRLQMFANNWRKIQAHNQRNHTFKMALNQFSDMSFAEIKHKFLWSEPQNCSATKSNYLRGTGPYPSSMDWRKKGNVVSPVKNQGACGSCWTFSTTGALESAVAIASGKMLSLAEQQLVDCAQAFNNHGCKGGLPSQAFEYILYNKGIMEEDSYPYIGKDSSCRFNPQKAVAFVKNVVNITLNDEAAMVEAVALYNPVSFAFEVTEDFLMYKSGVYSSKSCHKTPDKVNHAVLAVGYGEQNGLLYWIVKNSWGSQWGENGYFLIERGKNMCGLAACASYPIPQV
UniProt P36896, sequence (whole entry, looked up): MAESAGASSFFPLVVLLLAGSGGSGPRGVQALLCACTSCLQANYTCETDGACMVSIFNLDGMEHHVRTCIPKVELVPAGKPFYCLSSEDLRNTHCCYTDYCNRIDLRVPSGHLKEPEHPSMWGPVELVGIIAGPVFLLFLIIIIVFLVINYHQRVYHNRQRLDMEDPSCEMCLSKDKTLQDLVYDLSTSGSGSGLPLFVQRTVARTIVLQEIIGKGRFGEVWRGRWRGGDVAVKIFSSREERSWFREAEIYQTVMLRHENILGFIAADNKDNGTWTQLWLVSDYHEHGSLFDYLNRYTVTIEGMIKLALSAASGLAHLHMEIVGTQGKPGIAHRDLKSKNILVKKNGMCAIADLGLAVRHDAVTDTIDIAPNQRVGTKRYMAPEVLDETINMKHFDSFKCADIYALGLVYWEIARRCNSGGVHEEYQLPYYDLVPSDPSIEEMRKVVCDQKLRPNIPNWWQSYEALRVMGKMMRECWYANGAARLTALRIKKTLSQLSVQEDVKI
UniProt Q92626, sequence (whole entry, looked up): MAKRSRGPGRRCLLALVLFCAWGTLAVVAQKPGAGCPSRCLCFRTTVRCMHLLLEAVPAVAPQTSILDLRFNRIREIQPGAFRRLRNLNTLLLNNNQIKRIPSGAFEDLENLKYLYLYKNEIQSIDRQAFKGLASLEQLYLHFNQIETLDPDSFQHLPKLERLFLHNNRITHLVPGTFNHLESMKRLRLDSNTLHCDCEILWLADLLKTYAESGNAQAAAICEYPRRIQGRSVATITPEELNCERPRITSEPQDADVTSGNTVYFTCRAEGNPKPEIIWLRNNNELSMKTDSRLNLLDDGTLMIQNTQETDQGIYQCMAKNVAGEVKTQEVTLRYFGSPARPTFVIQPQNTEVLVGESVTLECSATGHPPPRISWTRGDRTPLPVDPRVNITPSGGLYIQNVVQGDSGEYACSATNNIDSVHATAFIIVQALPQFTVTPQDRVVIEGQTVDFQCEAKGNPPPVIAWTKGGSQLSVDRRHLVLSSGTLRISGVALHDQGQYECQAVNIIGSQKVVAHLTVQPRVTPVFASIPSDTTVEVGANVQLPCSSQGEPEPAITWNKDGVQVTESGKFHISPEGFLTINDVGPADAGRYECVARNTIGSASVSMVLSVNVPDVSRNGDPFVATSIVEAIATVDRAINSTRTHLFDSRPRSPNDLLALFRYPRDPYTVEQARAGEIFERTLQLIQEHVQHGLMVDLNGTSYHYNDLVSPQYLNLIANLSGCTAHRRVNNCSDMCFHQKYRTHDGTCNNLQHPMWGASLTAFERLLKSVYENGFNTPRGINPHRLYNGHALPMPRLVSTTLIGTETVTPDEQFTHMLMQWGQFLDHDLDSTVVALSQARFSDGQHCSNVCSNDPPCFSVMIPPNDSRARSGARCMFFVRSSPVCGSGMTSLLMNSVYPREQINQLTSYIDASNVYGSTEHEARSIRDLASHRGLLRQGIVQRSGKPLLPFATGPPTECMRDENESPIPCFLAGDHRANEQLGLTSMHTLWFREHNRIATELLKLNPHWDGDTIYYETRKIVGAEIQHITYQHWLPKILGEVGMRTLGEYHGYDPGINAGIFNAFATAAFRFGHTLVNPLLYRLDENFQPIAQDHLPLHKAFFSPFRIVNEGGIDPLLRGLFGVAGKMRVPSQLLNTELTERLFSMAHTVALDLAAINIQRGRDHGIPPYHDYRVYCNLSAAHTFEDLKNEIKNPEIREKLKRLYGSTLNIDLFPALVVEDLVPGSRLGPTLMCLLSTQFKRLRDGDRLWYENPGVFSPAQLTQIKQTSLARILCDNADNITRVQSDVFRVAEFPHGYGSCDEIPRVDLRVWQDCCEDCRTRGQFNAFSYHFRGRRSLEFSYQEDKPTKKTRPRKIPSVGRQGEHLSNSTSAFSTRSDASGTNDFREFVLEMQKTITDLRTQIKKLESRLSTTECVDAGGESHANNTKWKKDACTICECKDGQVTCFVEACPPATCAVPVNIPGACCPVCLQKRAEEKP
UniProt P51817, sequence (whole entry, looked up): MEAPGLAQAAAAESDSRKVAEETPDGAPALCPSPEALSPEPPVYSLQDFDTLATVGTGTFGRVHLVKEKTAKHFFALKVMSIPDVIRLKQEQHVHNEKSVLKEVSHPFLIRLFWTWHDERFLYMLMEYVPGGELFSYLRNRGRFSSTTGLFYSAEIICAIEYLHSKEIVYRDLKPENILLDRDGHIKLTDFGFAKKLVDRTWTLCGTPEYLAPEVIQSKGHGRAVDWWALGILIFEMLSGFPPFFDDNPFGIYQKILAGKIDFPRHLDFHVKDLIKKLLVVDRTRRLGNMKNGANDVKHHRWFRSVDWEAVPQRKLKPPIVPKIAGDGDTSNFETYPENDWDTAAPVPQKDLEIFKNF
UniProt Q96S53, sequence (whole entry, looked up): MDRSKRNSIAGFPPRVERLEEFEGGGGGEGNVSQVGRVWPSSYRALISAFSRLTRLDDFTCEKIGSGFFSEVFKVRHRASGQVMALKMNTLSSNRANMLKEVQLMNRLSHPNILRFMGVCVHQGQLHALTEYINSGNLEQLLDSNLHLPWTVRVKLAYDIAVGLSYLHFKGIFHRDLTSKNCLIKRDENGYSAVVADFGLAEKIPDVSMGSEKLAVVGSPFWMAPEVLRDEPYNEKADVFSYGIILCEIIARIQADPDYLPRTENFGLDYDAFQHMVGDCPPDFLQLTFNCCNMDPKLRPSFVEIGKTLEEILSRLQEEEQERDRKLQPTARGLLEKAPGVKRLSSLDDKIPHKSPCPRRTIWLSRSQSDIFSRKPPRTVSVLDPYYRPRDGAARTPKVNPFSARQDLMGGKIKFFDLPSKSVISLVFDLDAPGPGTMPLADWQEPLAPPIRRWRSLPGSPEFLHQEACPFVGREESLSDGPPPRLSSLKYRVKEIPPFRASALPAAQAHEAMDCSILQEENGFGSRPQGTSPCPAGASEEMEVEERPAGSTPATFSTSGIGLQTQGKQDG
UniProt Q9Y243, sequence (whole entry, looked up): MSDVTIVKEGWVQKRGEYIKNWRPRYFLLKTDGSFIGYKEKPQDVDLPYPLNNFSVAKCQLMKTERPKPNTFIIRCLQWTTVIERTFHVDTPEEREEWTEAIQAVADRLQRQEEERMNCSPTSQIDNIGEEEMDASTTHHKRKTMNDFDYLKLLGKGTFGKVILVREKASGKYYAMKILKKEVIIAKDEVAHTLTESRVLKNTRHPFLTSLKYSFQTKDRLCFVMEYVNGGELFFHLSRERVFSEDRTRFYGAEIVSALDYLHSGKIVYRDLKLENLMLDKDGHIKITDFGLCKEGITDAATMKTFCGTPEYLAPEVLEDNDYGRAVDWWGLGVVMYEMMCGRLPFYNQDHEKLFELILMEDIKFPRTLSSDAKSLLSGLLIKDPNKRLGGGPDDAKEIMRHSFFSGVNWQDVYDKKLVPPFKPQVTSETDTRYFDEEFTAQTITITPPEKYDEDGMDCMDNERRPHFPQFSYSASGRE

CNc1ncc2c(/C=C/C(=O)N3CCC(OC)CC3)nn(Cc3cccc(C(F)(F)F)c3)c2n1 — remaining activity (PRKX (Homo sapiens, UniProt P51817); kinase activity, inhibitor; 1 µM; reference: untreated control): 101%
COc1cc(F)ccc1-c1ncnc(Nc2cccc(C[S@](C)(=N)=O)c2)n1 — remaining activity (ROCK2 (Homo sapiens, UniProt O75116); kinase activity; 10 µM, added: 10 µM ATP): 88%
NC(=O)c1ncn([C@@H]2O[C@H](CO[P@@](=O)(O)O[P@](=O)(O)OP(=O)(O)O)[C@@H](O)[C@H]2O)n1 — remaining activity (Non-structural polyprotein pORF1, helicase domain (Hepatitis E virus genotype 1, UniProt P33424); ATPase activity, inhibitor, colorimetric; 56 µM; reference: untreated): 98.8%
O=C1NC(=O)/C(=C/c2ccc(-c3ccc(F)cc3O)o2)S1 — remaining activity (MAPKAPK5 (Homo sapiens, UniProt Q8IW41); enzyme activity; 10 µM): 64%
c1cnc2ccc(Nc3nc(NC4CC4)c4nc[nH]c4n3)cc2c1 — remaining activity (ACVR1B (Homo sapiens, UniProt P36896); kinase activity, inhibitor, SelectScreen kinase profiling; 1 µM; reference: control): 98%
O=C(O)c1ccc(Nc2ncc3c(n2)-c2ccc(Cl)cc2C(c2c(F)cccc2F)=NC3)cc1 — remaining activity (human DAPK2(h); kinase activity; 1 µM): 103%
Cc1cc(Nc2cc(N3CCN(C)CC3)nc(Sc3ccc(NC(=O)C4CC4)cc3)n2)[nH]n1 — remaining activity (PIM3 (Homo sapiens, UniProt Q86V86); kinase activity, KinaseProfiler; 0.03 µM, species human; reference: control): 104%
O=C(NC1CCC1)c1ccc2nc(-c3cccc(NS(=O)(=O)NCCN4CCCCC4)c3)cn2c1 — remaining activity (CLK3 (Homo sapiens, UniProt P49761); enzyme activity; 10 µM): 100%
C=CC(=O)N1CCC[C@@H](n2nc(-c3ccc(Oc4ccccc4)cc3)c3c(N)ncnc32)C1 — remaining activity (TESK2 (Homo sapiens, UniProt Q96S53); 10 µM): 45.8%
NC/C(=C\F)COc1cccc(Cn2c(=S)[nH]c(=O)c3[nH]cnc32)c1 — remaining activity (Peroxidasin homolog (PXDN, Homo sapiens, UniProt Q92626); Amplex UltraRed; 60 µM, mean of replicates; reference: control): 8.81%
COc1cc(-c2cncc3c2CN(C)Cc2cc(N4CCNCC4)ccc2-3)cc(OC)c1OC — remaining activity (AKT3 (Homo sapiens, UniProt Q9Y243); kinase activity; 1 µM, human enzyme, added: ATP 10 µM; reference: DMSO control): 103%
COc1cc(Nc2ncc3c(n2)-c2ccc(Cl)cc2C(c2c(F)cccc2OC)=NC3)ccc1C(=O)O — remaining activity (AKT3 (PKB gamma); enzyme activity; 1 µM): 107%
Cc1cccc(C)c1C(=O)OCC(=O)[C@H](CCCCN)NC(=O)[C@H](CCCNC(=N)N)NC(=O)OCc1ccccc1 — remaining activity (Pro-cathepsin H (Ctsh, Mus musculus, UniProt P49935); inhibitor; 1 µM, room temperature, added: AMC substrate): 92%
